Experimental data gathered from unrelated publications.
Every numbered part comes from another study and shows a few of its results, in no order. Positions count from the first letter of the parent shown.

Study 1
Target: Fragile X messenger ribonucleoprotein 1, C-terminal low-complexity region (Fmr1, Mus musculus, UniProt P35922)
Technique: RNA Bind-n-Seq
Form: RNA
Medium: in vitro
Concentration: 200 nM
Notes: whole 134-nt RNA, ends assumed
Together with: 150 mM LiCl
Reference: input library
Direction: higher = stronger binding
All molecules: 7-deaza-guanosine replaces G
All sequences stand within: GGGAGUUCUACAGUCCGACGAUC … UGGAAUUCUCGGGUGUCAAGG
Strand | log2 enrichment
AAGUCCUGUGCUACACAUCGUAUGUACCGAAUCGGUUUGGGGUUUGGGGUUUGGGGAAAGUAUUAUGUUACGCCGUUCGGAUCUGCACUU | -2.05
UGGCCCUGGUGGCAUGCGGGGAGGAAGAGGUGGCCUCAUGGAUCGUGGUGGUCCCGGUGGAAUGUUCAGAAGUGGCCGUGGUGGAGACAG | -0.448
UGGGAGGUGGAUUUUGUUUAUUUUUUUAGCUCAUUUCCAGGGAUGGGAAUUUUUUUUUAAUAUGUGUCAUGAAUAAAGUUGUUUUUGAAA | -0.0515
GUCCUGUGCUACACAUCGUAUGUACCGAAUCGGGAGGGUUUUUUUGGGUUUUUUUGGGAAAGUAUUAUGUUACGCCGUUCGGAUCUGCAC | -0.574
UAACUUUAGAGGAGGAUCUGAUGGAUAUGGCAGUGGACGUGGAUUUGGGGAUGGCUAUGAUGGGUAUGGAGGAGGACCUGGAGGUGGCAA | 0.388
UGCCUUGCAGAUACGUGGCUUUCCUGAAGCUGUUCCUGGAGACGGCGGAGAAGCACUUCAUGGUGGGCCACCGUGUCCACUACUAUGUCU | -0.499
CUCAAGUCCUGUGCUACACAUCGUAUGUACCGAAUCGGGCGGGGCGGGGCGGGAAAGUAUUAUGUUACGCCGUUCGGAUCUGCACUUCCA | 0.0359
AAGUCCUGUGCUACACAUCGUAUGUACCGAAUCGGGCCCCGGGGCCCCGGCCCCGGGAAAGUAUUAUGUUACGCCGUUCGGAUCUGCACU | -2.72
CUGUGCUACACAUCGUAUGUACCGAAUCGGGAAAAAAAGGGGAAAAAAAGGGAAAAAAAGGGAAAGUAUUAUGUUACGCCGUUCGGAUCU | 0.326
AAGUCCUGUGCUACACAUCGUAUGUACCGAAUCGGGCCCCGGGCCCCGGCCCCGGGAAAGUAUUAUGUUACGCCGUUCGGAUCUGCACUU | -2.28
CAAGUCCUGUGCUACACAUCGUAUGUACCGAAUCGGGUUUGGGUUUGGGGUUUGGGAAAGUAUUAUGUUACGCCGUUCGGAUCUGCACUU | -1.76

Study 2
Target: CCNA2, cyclin fold, Cln2 fusion (human)
Technique: yeast growth competition, sequencing
Medium: yeast
Notes: strong parent motif
Reference: not given
Direction: higher = stronger binding
Parent: INSM1 docking peptide (human); PKAIRKLHFEDEV; partner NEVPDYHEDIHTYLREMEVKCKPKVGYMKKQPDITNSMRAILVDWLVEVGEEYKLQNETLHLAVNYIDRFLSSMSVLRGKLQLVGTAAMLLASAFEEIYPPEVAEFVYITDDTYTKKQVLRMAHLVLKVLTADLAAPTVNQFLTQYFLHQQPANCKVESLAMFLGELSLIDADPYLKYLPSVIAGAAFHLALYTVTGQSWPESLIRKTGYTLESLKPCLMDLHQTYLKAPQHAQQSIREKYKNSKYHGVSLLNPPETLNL
Variant | normalised enrichment score
PKAIRKLGFEDEV [H8G] | 2.94
PKAIRKPHFEDEV [L7P] | 0.366
PKAIRKLHGEDEV [F9G] | 0.061
PKAIRKLWFEDEV [H8W] | 4.99
PKAIRALHFEDEV [K6A] | 4.27
PKAFRKLHFEDEV [I4F] | 5.78
PQAIRKLHFEDEV [K2Q] | 4.31
PKAIRKLHFEDCV [E12C] | 5.38
PKAIRKLHFEHEV [D11H] | 4.86
PKAIRKDHFEDEV [L7D] | -0.45
PKTIRKLHFEDEV [A3T] | 2.67
PKAITKLHFEDEV [R5T] | 1.16
PKIIRKLHFEDEV [A3I] | 3.64
PLAIRKLHFEDEV [K2L] | 4.26
PKAIRKLHFEDYV [E12Y] | 4.91
PKADRKLHFEDEV [I4D] | 1.04
PGAIRKLHFEDEV [K2G] | 4.99

Study 3
Target: ABI1, truncated, D143A, DHFR fusion (Arabidopsis thaliana)
Technique: DHFR PCA, deep sequencing
Medium: yeast
Notes: methotrexate growth selection, single substitutions
Together with: (+)-ABA 710 µM
Reference: wild-type fitted maximum
Direction: higher = stronger binding
Parent: PYL1, truncated, DHFR fusion (Arabidopsis thaliana); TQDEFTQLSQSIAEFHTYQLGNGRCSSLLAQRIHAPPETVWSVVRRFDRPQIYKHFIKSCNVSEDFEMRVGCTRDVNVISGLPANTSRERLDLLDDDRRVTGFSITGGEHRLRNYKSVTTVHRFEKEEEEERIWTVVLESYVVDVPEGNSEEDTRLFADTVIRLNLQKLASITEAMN
Variant | relative binding score [%]
E38W | 87.8
A170D | 60.1
V62G | 70.2
T135R | 10.9
S140G | 54.5
F15R | 85.3
I162T | 59
L82R | 4.03
E151N | 98.6
L156R | 94.3
E139K | 73
Q19R | 105
I52L | 106
S171G | 96.9
G21M | 101
R88Q | 108
T154I | 85.3
E4W | 104
L156A | 102
V145D | 9.04
N85T | 109
H110C | 64.7
Q2D | 106
V100Q | 78
F103D | -8.57

Study 4
Target: RNA binding protein fox-1 homolog 2, RRM domain, GST-SBP tag (RBFOX2, Homo sapiens, UniProt O43251-10, residues 100-194)
Technique: RNA Bind-n-Seq
Form: RNA
Medium: in vitro
Concentration: 365 nM
Notes: natural RNA segment, single round, ends assumed
Reference: no-protein control
Direction: higher = stronger binding
All sequences stand within: GGGAGUUCUACAGUCCGACGAUC … UGGAAUUCUCGGGUGCCAA
Residues (chain): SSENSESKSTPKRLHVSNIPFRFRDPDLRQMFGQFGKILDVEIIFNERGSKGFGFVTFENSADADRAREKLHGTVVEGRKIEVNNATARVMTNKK
Strand | RBNS enrichment (R)
GGCGGGCUCAGGAGAGUCCAUAGAUCAGCCGUAACUGGAACGUAGAAUCUACGUCUGCCUCUGAAUGGACUUCCCACCUCCUCUCUCUUGCUCUGAUGCUUGCCUCUGGG | 0.665
UAGUGACAAUUCAACUUUUUAUGCUAUGACCAGGGGUGGAUCUAAAUUUUAUGGGGCUGAAAGCUUGAAUUAUUUAGAAAGACUUCUUUAAGAAAAACAAUGUUAAUAUA | 1
AGGGGAAAGUAACCUGAACUUUAAUGUCUUUUGGAACAAAACCAAAGUUUAAGAUUUGCCAUAUGACGACGUGGUGACCGGGAAGUCCAGAGUCGGCAAGCAGGUGCCAG | 1.6
AAGAGAUUUUAUGUUUAAAAUGGCAUUUAGCACAGUAUUUAACAUUCUUGGUCACAAAGCUAUUUAAGUGGACUGUAUUUCGGCUAUGUCUCAUGUUUUAUAUGAUUAAA | 0.718
AUACACAUUGUUGUUUUUGCUGGUCUCAUCUUUGGUAAUAUGCUAUACCCCACUGCUGCCCGACACUGCCCUUUAGCUGCAGAGCUGGAUUAGCUGUUGACCAUUUGAUG | 0.504
CAUUUAAAAUUCCUUUUAAGAUUCGUGGAUUUUAUUUUUAUUAAGUAUAUAGAUAUAUAAAGUACUGUAGUUUACAGCUAGGCCUUGAGAUAUCUUUUUAGGAUCUGUUA | 0.85
CAUGGACCAUAACUCUGCUAUACCAGGCAGCCAGGUAUCUAGCAAUGUAGGGGACGUCAUGUCGUUUUCAGUGACUGUCACUACCAUCCCUGCCAGUCAAGCAAUGAAUC | 0.315
GGAAAUAAAUUCACUAUUAAUUCAUGUCUUAAGUUACUUGGGUUAAAACACUUUCAGCCACCCAGAUUAAUUAAAGUGGAGCAGUGGAGCCCCUGGCUGGGAGAUGGCCU | 0.375
GCUGCUUUCUUGUCUUUUAUUUCUAAAAGCCCCCUUAUACCCCACUUUGUGCAGCAAAGAUCCCCGUGCAGGUCACAGCCUGAUUUGUGGCCAGGCUGGACAAAUUCCUG | 2.08
UUGAUACUUUAAAAGGACUUUAUAUUUGUAACAUUGAUGUUAACCAGUUUAUUAGUUUAAAUCAGUACUUUGCAUAUAAUAAGCAUUCAACAAAAAUUUAUUGACUGAAA | 0.437
UAUUUAUUGCAUAUUUAUUGUUUGGAUGUCACCAUCAGAGACGAAGGGAAGGGUAGCCAGGGAGGGAGUCCAGCCCAGCUGCCUGCAGGAAGAUCUGGCUCAGUCUACUA | 0.332
UCCUAAUAGUCCUUCAGUGCAUUUUAGUCUGUCUCCAACUGGACACCAGUAGGUAGUGUCAAGCCAGAGAUUCGGGGCAGUAGAUAAAUGUUCAUUUUACUGAUGCACUU | 0.457
